# Measured values collected from several papers.
# Several values in a cell are separate wells, animals, samples, runs or records. ± gives the spread as reported.
# rep main protease: Replicase polyprotein 1ab, main protease (rep, Severe acute respiratory syndrome coronavirus 2, UniProt P0DTD1)
# gag-pol K653A reverse transcriptase: Gag-Pol polyprotein, reverse transcriptase (gag-pol, Human immunodeficiency virus type 1 group M subtype B, UniProt P04585, K653A)
# B1: cytochrome c peroxidase H52Q; sequence looked up; chain TTPLVHVASVEKGRSYEDFQKVYNAIALKLREDDEYDNYIGYGPVLVRLAWQTSGTWDKHDNTGGSYGGTYRFKKEFNDPSNAGLQNGFKFLEPIHKEFPWISSGDLFSLGGVTAVQEMQGPKIPWRCGRVDTPEDTTPDNGRLPDADKDADYVRTFFQRLNMNDREVVALMGAHALGKTHLKNSGYEGPWGAANNVFTNEFYLNLLNEDWKLEKNDANNEQWDSKSGYMMLPTDYSLIQDPKYLSIVKEYANDQDKFFKDFSKAFEKLLENGITFPKDAPSPFIFKTLEEQGL
# Chain of UniProt P02716 (whole entry, looked up): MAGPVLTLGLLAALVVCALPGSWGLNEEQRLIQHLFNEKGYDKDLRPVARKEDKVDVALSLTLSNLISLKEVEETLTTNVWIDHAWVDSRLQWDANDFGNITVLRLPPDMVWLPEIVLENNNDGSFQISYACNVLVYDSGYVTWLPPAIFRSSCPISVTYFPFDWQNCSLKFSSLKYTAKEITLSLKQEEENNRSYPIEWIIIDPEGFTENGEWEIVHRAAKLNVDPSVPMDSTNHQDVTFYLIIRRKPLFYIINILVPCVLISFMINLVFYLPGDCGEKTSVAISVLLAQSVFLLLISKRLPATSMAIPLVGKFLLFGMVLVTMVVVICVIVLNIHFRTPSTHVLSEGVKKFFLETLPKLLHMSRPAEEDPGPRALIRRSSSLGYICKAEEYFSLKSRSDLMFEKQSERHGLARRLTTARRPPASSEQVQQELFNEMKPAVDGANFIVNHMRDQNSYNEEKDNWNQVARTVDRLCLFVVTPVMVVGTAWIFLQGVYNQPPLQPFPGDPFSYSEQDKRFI
# Chain of UniProt P04756 (whole entry, looked up): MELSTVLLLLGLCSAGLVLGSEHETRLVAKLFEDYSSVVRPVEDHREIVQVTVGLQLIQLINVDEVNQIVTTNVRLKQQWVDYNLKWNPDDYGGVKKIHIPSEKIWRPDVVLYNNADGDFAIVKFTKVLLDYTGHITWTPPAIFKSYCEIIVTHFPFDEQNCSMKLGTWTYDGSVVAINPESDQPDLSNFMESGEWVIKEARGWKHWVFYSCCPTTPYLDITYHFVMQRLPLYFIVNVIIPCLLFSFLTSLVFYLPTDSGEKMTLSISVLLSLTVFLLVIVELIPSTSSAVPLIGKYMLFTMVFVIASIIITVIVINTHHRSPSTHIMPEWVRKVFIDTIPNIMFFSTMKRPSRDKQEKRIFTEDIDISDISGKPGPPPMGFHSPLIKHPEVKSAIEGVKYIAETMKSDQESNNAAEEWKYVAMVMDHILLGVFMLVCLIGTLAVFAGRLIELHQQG
# Chain of UniProt P20782 (whole entry, looked up): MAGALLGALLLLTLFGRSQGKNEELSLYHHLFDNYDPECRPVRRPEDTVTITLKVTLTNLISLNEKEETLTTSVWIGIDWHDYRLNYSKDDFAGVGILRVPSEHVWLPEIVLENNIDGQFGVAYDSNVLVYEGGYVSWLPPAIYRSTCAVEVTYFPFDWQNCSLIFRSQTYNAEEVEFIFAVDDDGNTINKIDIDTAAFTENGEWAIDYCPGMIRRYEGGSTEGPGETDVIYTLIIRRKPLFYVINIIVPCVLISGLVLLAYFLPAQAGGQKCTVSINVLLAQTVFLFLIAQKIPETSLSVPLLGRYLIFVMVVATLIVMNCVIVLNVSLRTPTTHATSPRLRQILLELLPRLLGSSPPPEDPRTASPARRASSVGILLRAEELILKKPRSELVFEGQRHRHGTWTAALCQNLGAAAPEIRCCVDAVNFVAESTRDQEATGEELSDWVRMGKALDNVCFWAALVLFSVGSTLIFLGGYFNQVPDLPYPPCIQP
Molecule,target,assay,system,conditions,scale,endpoint,result
COc1cc(O)cc(OC)c1,rep main protease,"reporter gene (mKate2), inhibitor",,20 µM,,inhibition,-1.02%
Cc1cc(C(=O)N2[C@@H]3CCC[C@H]2CC(NC(=O)c2cc[nH]c(=O)c2)C3)cc(=O)[nH]1 (some centres unmarked),rep main protease,"enzyme activity, inhibitor",,"5 µM, mean of runs",,inhibition,13.2%
CSCC[C@H](NC(=O)[C@H](CCCNC(=N)N)NC(=O)[C@H](Cc1ccccc1)NC(=O)[C@H](CS)NC(=O)[C@H](C)NC(=O)[C@@H](NC(=O)[C@@H](NC(=O)[C@H](C)NC(=O)[C@H](CCCNC(=N)N)NC(=O)[C@H](CCCNC(=N)N)NC(=O)[C@H](CCCNC(=N)N)NC(=O)[C@H](CCC(N)=O)NC(=O)[C@H](CCCCN)NC(=O)[C@H](CO)NC(=O)[C@H](CC(C)C)NC(=O)[C@H](CC(C)C)NC(=O)[C@H](CCCCN)NC(=O)[C@H](Cc1c[nH]cn1)NC(=O)[C@H](Cc1c[nH]c2ccccc12)NC(=O)[C@@H](NC(=O)[C@H](C)NC(=O)[C@H](CCCCN)NC(=O)[C@H](CCCCN)NC(=O)[C@H](CO)NC(=O)[C@H](CCCCN)NC(C)=O)C(C)C)C(C)C)C(C)C)C(=O)N[C@H](C(=O)N1CCC[C@H]1C(=O)N[C@@H](CC(C)C)C(=O)N[C@@H](Cc1ccc(O)cc1)C(=O)N[C@@H](CC(N)=O)C(N)=O)[C@@H](C)O,calmodulin 1-148 sites III and IV,"calcium binding, Tyr fluorescence titration",,"12 µM, pH 7.4, 22 °C, together with: 6 µM calmodulin",,apparent ΔG2,-18.85 ± 0.14 kcal/mol
CN1CCCC1c1cc(C(=O)N2C[C@@H](F)C[C@H]2CNC(=O)c2cc3c(=O)[nH]ccn3n2)n[nH]1 (some centres unmarked),rep main protease,"inhibitor, high-throughput enzymatic",,"5 µM, single run",,inhibition,7.3%
Cc1cnc(C(=O)N[C@H]2CCCCC/C=C\[C@@H]3C[C@@]3(C(=O)NS(=O)(=O)C3CC3)NC(=O)[C@@H]3C[C@@H](Oc4nc5ccccc5c5ccccc45)CN3C2=O)cn1,rep main protease,"reporter gene (Gaussia luciferase), inhibitor",,20 µM,,inhibition,5.87%
O=C(Cn1c(O)ccc1O)N[C@@H]1CCCCC12CCN(C(=O)c1cncc3[nH]cnc13)CC2,rep main protease,"enzyme activity, inhibitor",,5 µM,,inhibition,7.4%
Cc1cn([C@H]2C[C@H](O)[C@@H](COP(=O)(O)OP(=O)(O)OP(=O)(O)O)O2)c(=O)[nH]c1=O,"Gag-Pol polyprotein, reverse transcriptase (gag-pol, Human immunodeficiency virus type 1 group M subtype B, UniProt P04585, K653N)","nucleotide misinsertion, steady-state kinetics",,"K66N mutant RT, together with: opposite template T",,Km,1.62 ± 0.66 mM
Cc1nocc1C(=O)N1Cc2ccccc2[C@@H](CNC(=O)c2cncc3ccc(F)cc23)C1,rep main protease,"enzyme activity, inhibitor",,"5 µM, mean of runs",,inhibition,13%
CCN(CC)c1nc(C)cc(OP(=S)(OC)OC)n1,"uncharacterized protein (Anopheles coluzzii, UniProt A0A6E8VQK1)","enzyme activity, inhibitor",Sf9 cell homogenate,"0.02326 µM, 0.1667 h, together with: α-naphthyl acetate substrate",baseline: no inhibitor,remaining activity,104%
O=C(Cn1ccnn1)NC[C@H](NC(=O)c1cncc2ccccc12)c1ccc2ccccc2c1,rep main protease,"enzyme activity, inhibitor",,"5 µM, mean of runs",,inhibition,11.6%
CC(C)=CCc1c(O)cc(O)c2c(=O)c(-c3ccc(O)cc3)coc12,rep main protease,"reporter gene (Gaussia luciferase), inhibitor",,20 µM,,inhibition,1.01%
Cc1cn([C@H]2C=C[C@@H](COP(=O)(O)OP(=O)(O)OP(=O)(O)O)O2)c(=O)[nH]c1=O,gag-pol K653A reverse transcriptase,"reverse transcriptase activity, inhibitor",HIV-1,,baseline: K66A mutant over wild type,fold resistance,~2 fold
Cc1cncc(CC(=O)N2CCC[C@@H]([C@@H]3CCN(C(=O)c4cnn5cccnc45)C3)C2)c1,rep main protease,"enzyme activity, inhibitor",,"5 µM, mean of runs",,inhibition,10.2%
Cc1cn([C@H]2C[C@H](N=[N+]=[N-])[C@@H](COP(=O)(O)OP(=O)(O)OP(=O)(O)O)O2)c(=O)[nH]c1=O,gag-pol K653A reverse transcriptase,"reverse transcriptase activity, inhibitor",HIV-1,,baseline: K66A mutant over wild type,fold resistance,3 fold
O=C(c1ccc2c(c1)COC2)N1CCCC[C@H](C2CN(C(=O)c3cncc4[nH]cnc34)C2)C1,rep main protease,"enzyme activity, inhibitor",,"5 µM, mean of runs",,inhibition,16.3%
Nc1ncnc2c1ncn2[C@H]1C[C@H](O)[C@@H](COP(=O)(O)OP(=O)(O)OP(=O)(O)O)O1,"Gag-Pol polyprotein, reverse transcriptase (gag-pol, Human immunodeficiency virus type 1 group M subtype B, UniProt P04585, K653T)",substrate,,"K66T mutant, together with: G:A mismatched primer template",,kcat,1.37 ± 0.39 min⁻¹
CN(C)C(=O)COC(=O)Cc1ccc(OC(=O)c2ccc(NC(=N)N)cc2)cc1,rep main protease,"reporter gene (Gaussia luciferase), inhibitor",,20 µM,,inhibition,4.3%
Nc1nc2c(ncn2[C@H]2C[C@H](O)[C@@H](COP(=O)(O)OP(=O)(O)OP(=O)(O)O)O2)c(=O)[nH]1,"Gag-Pol polyprotein, reverse transcriptase (gag-pol, Human immunodeficiency virus type 1 group M subtype B, UniProt P04585)","nucleotide misinsertion, steady-state kinetics",,"wild-type RT, together with: opposite template T",,kcat,5.52 ± 0.57 min⁻¹
O=C(NN1C(=O)[C@@H]2[C@@H]3C=C[C@@H]([C@H]4C[C@@H]34)[C@@H]2C1=O)c1ccc(C(F)(F)F)cc1,rep main protease,"reporter gene (mKate2), inhibitor",,20 µM,,inhibition,-0.0526%
Cc1cnoc1C(=O)NC[C@@H]1CC2(CCOCC2)CN1C(=O)c1cc(F)cc(C(N)=O)c1,rep main protease,"enzyme activity, inhibitor",,"5 µM, run 2",,inhibition,14.1%
CN(Cc1cc(Br)cc(Br)c1N)C1CCCCC1,rep main protease,"reporter gene (mKate2), inhibitor",,20 µM,,inhibition,-0.476%
CCc1c(C(=O)C(N)=O)c2c(OCC(=O)O)cccc2n1Cc1ccccc1,Daboia russelii venom phospholipase A2,"enzyme activity, inhibitor",MP population,"1 µM, together with: NOB substrate",baseline: venom alone,remaining activity,86.1% and 83.1% and 78.4%
COC(=O)C[C@H](NC(=O)[C@H](C)NC(=O)[C@@H](NC(=O)OCc1ccccc1)C(C)C)C(=O)CF,rep main protease,"reporter gene (Gaussia luciferase), inhibitor",,20 µM,,inhibition,4.43%
B1 (cytochrome c peroxidase H52Q),haem protein variant,,,"pH 6.0, ionic strength 0.10 M, slow phase",,cyanide binding rate constant,8.4 ± 2.5 M⁻¹ s⁻¹
CC(C)CC(=O)N[C@H](C(=O)N[C@H](C(=O)N[C@@H](CC(C)C)[C@@H](O)CC(=O)N[C@@H](C)C(=O)N[C@@H](CC(C)C)[C@@H](O)CC(=O)O)C(C)C)C(C)C,rep main protease,"reporter gene (Gaussia luciferase), inhibitor",,20 µM,,inhibition,0.381%
COc1cc2c3cc1Oc1cc(ccc1O)C[C@@H]1c4c(cc(OC)c(O)c4Oc4ccc(cc4)C[C@@H]3N(C)CC2)CC[N+]1(C)C,"Chrnd/Chrna1/Chrne (Mus musculus, UniProt P02716+P04756+P20782)",,mouse diaphragm,"0.04 µM, AChE inhibited",,free receptor reduction,52%

# Excerpt of the above:
Molecule,target,assay,system,conditions,scale,endpoint,result
O=C(c1ccc2c(c1)COC2)N1CCCC[C@H](C2CN(C(=O)c3cncc4[nH]cnc34)C2)C1,rep main protease,"enzyme activity, inhibitor",,"5 µM, mean of runs",,inhibition,16.3%
CC(C)=CCc1c(O)cc(O)c2c(=O)c(-c3ccc(O)cc3)coc12,rep main protease,"reporter gene (Gaussia luciferase), inhibitor",,20 µM,,inhibition,1.01%
